Experimental data collected from several papers.
Protocols differ between the studies behind these lines. Several values in a cell are separate wells, animals, samples, runs or records. Numbers after ± are the reported error.
ORM1 F1/S variants: Alpha-1-acid glycoprotein 1, F1/S variants (ORM1, Homo sapiens, UniProt P02763)
Chain of UniProt P02763 (whole entry, looked up): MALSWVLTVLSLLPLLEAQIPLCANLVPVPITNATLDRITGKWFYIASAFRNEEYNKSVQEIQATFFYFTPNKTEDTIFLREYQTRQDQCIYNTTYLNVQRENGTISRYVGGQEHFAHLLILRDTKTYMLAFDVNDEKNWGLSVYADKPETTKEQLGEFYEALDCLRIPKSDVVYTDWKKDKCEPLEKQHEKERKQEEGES
OSBP2: Oxysterol-binding protein 2 (OSBP2, Homo sapiens, UniProt Q969R2)
Chain of UniProt Q969R2 (whole entry, looked up): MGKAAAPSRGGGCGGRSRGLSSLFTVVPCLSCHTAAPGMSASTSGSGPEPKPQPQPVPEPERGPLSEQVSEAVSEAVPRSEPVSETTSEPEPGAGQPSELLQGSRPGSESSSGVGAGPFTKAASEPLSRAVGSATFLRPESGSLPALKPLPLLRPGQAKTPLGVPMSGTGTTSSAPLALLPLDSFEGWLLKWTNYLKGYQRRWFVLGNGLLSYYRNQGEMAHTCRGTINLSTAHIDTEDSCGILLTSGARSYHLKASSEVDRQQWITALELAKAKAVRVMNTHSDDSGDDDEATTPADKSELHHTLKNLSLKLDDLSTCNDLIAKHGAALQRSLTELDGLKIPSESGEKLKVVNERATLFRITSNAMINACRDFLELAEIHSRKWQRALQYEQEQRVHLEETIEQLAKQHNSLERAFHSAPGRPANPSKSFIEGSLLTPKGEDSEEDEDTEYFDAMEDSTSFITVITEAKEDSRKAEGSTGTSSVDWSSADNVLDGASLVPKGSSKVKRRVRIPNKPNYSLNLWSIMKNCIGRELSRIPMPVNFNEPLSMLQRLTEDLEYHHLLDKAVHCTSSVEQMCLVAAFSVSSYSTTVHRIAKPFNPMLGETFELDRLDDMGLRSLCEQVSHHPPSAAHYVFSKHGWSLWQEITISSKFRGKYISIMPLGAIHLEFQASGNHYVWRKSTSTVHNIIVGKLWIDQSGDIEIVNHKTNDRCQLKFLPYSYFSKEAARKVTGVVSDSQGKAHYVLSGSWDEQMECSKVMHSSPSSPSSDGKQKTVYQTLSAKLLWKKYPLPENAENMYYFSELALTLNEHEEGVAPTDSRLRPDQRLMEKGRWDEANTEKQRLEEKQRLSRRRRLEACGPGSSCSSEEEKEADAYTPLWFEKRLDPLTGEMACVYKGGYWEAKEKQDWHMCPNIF
DRD2: D(2) dopamine receptor (DRD2, Homo sapiens, UniProt P14416)
Chain of UniProt P14416 (whole entry, looked up): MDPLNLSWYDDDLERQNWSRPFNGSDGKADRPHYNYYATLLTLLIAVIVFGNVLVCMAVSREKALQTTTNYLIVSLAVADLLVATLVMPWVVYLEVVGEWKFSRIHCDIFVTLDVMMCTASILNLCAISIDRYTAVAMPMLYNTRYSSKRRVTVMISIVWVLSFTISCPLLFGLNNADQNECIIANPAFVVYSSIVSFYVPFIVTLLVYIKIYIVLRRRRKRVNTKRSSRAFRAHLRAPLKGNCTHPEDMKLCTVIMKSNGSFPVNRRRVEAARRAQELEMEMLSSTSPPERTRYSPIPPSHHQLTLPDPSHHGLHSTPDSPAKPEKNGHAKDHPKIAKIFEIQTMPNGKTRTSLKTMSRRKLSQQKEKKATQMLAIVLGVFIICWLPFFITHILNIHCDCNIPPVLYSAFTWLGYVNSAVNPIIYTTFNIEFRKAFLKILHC
uncharacterized protein: uncharacterized protein (Spodoptera exigua, UniProt F1CEY0)
VHL with elongin B/C: von Hippel-Lindau disease tumor suppressor, with elongin B/C (VHL, Homo sapiens, UniProt P40337)
Chain of UniProt P51575 (whole entry, unmodified, looked up): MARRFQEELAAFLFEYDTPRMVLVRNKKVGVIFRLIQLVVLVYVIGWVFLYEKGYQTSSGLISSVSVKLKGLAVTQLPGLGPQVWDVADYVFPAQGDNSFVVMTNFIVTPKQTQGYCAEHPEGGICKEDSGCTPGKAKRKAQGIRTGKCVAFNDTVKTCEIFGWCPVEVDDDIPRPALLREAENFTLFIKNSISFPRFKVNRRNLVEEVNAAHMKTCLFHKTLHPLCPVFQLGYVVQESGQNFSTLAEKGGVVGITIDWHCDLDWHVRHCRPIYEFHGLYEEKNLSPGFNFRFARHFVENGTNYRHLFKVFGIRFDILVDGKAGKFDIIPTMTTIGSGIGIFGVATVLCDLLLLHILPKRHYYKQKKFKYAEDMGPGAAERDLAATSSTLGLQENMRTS
Chain of UniProt Q9NXA8 (whole entry, looked up): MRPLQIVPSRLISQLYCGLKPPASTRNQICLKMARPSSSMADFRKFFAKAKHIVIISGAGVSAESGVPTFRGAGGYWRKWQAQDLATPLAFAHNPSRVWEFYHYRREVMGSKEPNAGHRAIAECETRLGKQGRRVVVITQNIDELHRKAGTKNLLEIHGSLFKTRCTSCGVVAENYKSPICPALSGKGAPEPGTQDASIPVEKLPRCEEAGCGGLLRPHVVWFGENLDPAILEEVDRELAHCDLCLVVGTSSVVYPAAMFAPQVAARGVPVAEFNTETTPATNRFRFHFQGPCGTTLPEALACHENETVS
Chain of UniProt Q00534 (whole entry, looked up): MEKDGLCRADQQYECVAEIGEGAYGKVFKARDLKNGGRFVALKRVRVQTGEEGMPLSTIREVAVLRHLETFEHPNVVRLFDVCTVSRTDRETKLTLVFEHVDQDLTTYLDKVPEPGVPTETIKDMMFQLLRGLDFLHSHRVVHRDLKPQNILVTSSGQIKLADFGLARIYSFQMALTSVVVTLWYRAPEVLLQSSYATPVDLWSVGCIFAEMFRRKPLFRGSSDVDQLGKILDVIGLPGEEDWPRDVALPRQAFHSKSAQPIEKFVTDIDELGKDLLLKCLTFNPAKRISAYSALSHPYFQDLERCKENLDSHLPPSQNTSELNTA
Chain of UniProt P52790 (whole entry, looked up): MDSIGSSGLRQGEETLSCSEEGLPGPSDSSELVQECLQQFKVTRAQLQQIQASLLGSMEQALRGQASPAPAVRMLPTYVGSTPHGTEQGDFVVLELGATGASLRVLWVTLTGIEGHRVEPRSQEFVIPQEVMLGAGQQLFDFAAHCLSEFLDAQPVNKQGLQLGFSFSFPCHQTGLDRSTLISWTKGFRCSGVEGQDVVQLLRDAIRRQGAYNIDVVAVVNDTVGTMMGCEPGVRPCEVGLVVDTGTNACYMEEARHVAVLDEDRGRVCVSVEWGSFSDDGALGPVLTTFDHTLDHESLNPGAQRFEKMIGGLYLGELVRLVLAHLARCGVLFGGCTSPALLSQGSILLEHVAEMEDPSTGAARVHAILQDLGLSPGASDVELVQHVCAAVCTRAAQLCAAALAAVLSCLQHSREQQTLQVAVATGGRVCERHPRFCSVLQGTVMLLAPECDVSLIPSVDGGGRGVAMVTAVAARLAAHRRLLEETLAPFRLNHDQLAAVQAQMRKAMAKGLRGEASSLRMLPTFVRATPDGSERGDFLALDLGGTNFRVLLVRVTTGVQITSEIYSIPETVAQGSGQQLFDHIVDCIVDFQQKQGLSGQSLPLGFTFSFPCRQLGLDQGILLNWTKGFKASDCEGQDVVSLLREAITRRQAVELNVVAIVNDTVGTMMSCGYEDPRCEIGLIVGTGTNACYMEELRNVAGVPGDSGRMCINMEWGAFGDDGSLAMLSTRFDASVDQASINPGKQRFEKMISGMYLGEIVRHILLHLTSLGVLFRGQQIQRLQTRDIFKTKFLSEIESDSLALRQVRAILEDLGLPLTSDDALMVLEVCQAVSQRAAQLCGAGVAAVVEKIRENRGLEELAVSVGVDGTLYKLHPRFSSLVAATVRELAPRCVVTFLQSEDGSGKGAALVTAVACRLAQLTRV
Chain of UniProt P0DMS8 (whole entry, looked up): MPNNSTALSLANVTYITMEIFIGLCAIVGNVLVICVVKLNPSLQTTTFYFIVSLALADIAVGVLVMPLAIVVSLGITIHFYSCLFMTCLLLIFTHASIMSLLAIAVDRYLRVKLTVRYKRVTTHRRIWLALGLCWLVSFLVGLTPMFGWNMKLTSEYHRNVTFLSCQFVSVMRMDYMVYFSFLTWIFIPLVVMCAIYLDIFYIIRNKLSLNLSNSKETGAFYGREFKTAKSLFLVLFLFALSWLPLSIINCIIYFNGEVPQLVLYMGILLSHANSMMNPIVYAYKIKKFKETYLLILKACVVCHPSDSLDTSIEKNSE
Chain of UniProt P16662 (whole entry, looked up): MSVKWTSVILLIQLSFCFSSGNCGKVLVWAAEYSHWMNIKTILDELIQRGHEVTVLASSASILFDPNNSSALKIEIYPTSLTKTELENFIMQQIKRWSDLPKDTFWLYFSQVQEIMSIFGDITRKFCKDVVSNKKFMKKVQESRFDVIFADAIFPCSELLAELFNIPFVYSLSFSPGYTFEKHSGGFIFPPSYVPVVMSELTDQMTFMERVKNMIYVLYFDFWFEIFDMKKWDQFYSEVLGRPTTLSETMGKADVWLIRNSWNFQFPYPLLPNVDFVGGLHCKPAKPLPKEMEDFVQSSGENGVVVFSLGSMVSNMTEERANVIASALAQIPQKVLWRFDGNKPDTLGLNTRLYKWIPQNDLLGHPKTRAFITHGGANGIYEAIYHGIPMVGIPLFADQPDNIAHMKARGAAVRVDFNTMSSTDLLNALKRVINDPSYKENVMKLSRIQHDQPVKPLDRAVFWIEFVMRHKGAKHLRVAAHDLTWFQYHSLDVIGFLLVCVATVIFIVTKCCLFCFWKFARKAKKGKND
Chain of UniProt P41893 (whole entry, looked up): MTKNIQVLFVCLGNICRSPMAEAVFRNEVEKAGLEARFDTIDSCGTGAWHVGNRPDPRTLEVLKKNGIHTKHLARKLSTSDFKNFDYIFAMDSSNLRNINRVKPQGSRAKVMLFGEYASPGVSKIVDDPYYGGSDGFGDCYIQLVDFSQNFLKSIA

`CN1CCN(c2ccc(Nc3ncc4cc(C#N)c(=O)n(C5CCCC5)c4n3)cc2)CC1` has an IC50 of 7.16 µM (Tyrosine-protein kinase JAK1 (JAK1, Homo sapiens, UniProt P23458)).
Under “patients with cardiac adverse events”, `Cc1cc(Nc2ccc(S(F)(F)(F)(F)F)cc2)n2nc(C(C)(F)F)nc2n1` is recorded as 0% (Plasmodium vivax; human Plasmodium vivax malaria patients; oral, 400 mg).
For `COCc1cc(C(=O)Nc2cc([C@H]3CC[C@@H](OC(=O)NC(C)C)C3)[nH]n2)n(C)n1`, the Ki was > 0.702 µM (Cyclin-dependent kinase 6, with cyclin D3 (CDK6, Homo sapiens, UniProt Q00534); kinase activity, inhibitor, fluorescence).
`CCOC(=O)[C@H](CCc1ccccc1)N[C@H]1CCc2ccccc2N(CC(=O)O)C1=O` has a Ki of 61.1 µM (ORM1 F1/S variants; competitive inhibitor, ultrafiltration; 15 min, 37 °C, added: [3H]tamsulosin).
`CC(=O)OCC(=O)[C@H]1CC[C@H]2[C@@H]3CC=C4C[C@@H](O)CC[C@]4(C)[C@H]3CC[C@]12C` has a Ki of > 100 µM (OSBP2; binding, radioligand competition; added: [3H]-25-hydroxycholesterol).
The IC50 of `CN(C)C(=O)c1c[nH]cc1S(=O)(=O)Nc1ccc(C(F)(F)F)c(Cl)c1` is reported as > 100 µM (DRD2).
`CCCCCCCCOC(C)=O` has a Ki of 5.77 µM (uncharacterized protein; binding; added: 1-NPN).
`O=[N+]([O-])c1ccc(OS(=O)(=O)O)cc1` has a Ki of 6600 ± 700 µM (Low molecular weight phosphotyrosine protein phosphatase (stp1, Schizosaccharomyces pombe, UniProt P41893)).
With `COc1cc(N2CCC(N3CCN(C)CC3)CC2)ccc1Nc1ncc(Cl)c(Nc2ccccc2P(C)(C)=O)n1` the Ki was 5.58 µM (Solute carrier family 22 member 1 (SLC22A1, Homo sapiens, UniProt O15245); transport, inhibitor; HEK cells transfected with SLC22A1; added: MPP+ 5 µM substrate).
The Ki of `Cc1ncsc1-c1ccc(CNC(=O)[C@@H]2C[C@H](O)CN2C(=O)[C@@H](NC(=O)C2(F)CC2)C(C)(C)C)c(OCCc2ccc(CN3CCN(c4cc(-c5ccccc5O)nnc4N)CC3)cc2)c1` is reported as > 30 µM (VHL with elongin B/C; binding).
`CSc1ccc2c(c1)N(CCC1CCCCN1C)c1ccccc1S2` (stereo not drawn) gave a Ki of 1.31 µM (ORM1 F1/S variants; competitive inhibitor, ultrafiltration; 15 min, 37 °C, added: [3H]tamsulosin).
`OC[C@H]1OC(O)[C@H](O)[C@@H](O)[C@@H]1O` (stereo partly drawn) has a Ki of 9200 ± 500 µM (Hexokinase-3 (HK3, Homo sapiens, UniProt P52790); substrate inhibition; added: ATP 20 mM, saturating).
With `CC(=O)[C@H]1CC[C@H]2[C@@H]3CCC4=CC(=O)CC[C@]4(C)[C@H]3CC[C@]12C` the Ki was 54.9 µM (ORM1 F1/S variants; competitive inhibitor, ultrafiltration; 15 min, 37 °C, added: [3H]S-warfarin).
The specific binding of `Nc1ncnc2c1ncn2[C@@H]1O[C@H](COP(=O)(O)CP(=O)(O)OP(=O)(O)O)[C@@H](O)[C@H]1O` is reported as 245 CCPM and 236 CCPM (P2X purinoceptor 1 (P2RX1, Homo sapiens, UniProt P51575, R139P); saturation binding; HEK293; 13 nM).
With `CCCCCCCCCCOC(C)=O` the Ki was 4.87 µM (uncharacterized protein; binding; added: 1-NPN).
`Cc1ncsc1-c1ccc(CNC(=O)[C@@H]2C[C@@H](O)CN2C(=O)[C@@H](NC(=O)C2(F)CC2)C(C)(C)C)c(OCCOc2ccc(CN3CCN(c4cc(-c5ccccc5O)nnc4N)CC3)cc2)c1` has a Ki of 0.45 µM (VHL with elongin B/C; binding).
`CCN(CC)CCCN(c1ccccc1)C1Cc2ccccc2C1` has a Ki of 4.21 µM (ORM1 F1/S variants; competitive inhibitor, ultrafiltration; 15 min, 37 °C, added: [3H]tamsulosin).
`Cn1cc(-c2ccc(-c3cncc(Cl)c3N3CCC4(CCNC4=O)CC3)cc2)cn1` — result for “log2 fold change”: 1.68 (COLO 205; gene expression, microarray, measured: UCHL1 mRNA; concentration not given, 2 h; relative to: untreated cells).
The Ki of `O=c1cccccc1O` is reported as 245 ± 14 µM (Carbonic anhydrase 2 (CA2, Homo sapiens, UniProt P00918, L197G); esterase activity, inhibitor, p-nitrophenyl acetate hydrolysis; pH 8.0).
The Ki of `COC(=O)C1=C(C)NC(C)=C(C(=O)O[C@H]2CCN(Cc3ccccc3)C2)[C@H]1c1cccc([N+](=O)[O-])c1` is reported as 17.4 µM (ORM1 F1/S variants; competitive inhibitor, ultrafiltration; 15 min, 37 °C, added: [3H]tamsulosin).
The tissue uptake of `CC(C)C[C@H](NC(=O)C[C@H](O)[C@H](CC(C)C)NC(=O)[C@H](Cc1c[nH]cn1)NC(=O)CNC(=O)[C@@H](NC(=O)[C@H](C)NC(=O)[C@H](Cc1c[nH]c2ccccc12)NC(=O)[C@H](CCC(N)=O)NC(=O)[C@@H](Cc1ccccc1)NC(=O)COCCOCCNC(=O)CCC(C(=O)O)N1CCN(CC(=O)O)CCN(CC(=O)O)CCN(CC(=O)O)CC1)C(C)C)C(N)=O` (stereo partly drawn) [lutetium-177 labelled] is reported as 0.01 %ID/g (female BALB/c nu/nu mice, muscle; intravenous, 100 pmol, 24 h, added: PA 300 µg).
With `C=C1CC[C@@H]2[C@](C)(CO)[C@H](O)CC[C@@]2(C)[C@@H]1CCC1=CCOC1=O` the Ki was 7.1 µM (UDP-glucuronosyltransferase 2B7 (UGT2B7, Homo sapiens, UniProt P16662); AZT glucuronidation, inhibitor; pooled human liver microsomes; 30 min, pH 7.4, added: zidovudine).
For `C[C@H](CCC(=O)NCCS(=O)(=O)O)[C@H]1CC[C@H]2[C@@H]3[C@@H](O)C[C@@H]4C[C@H](O)CC[C@]4(C)[C@H]3CC[C@]12C`, the Ki was > 100 µM (OSBP2; [3H]-25-hydroxycholesterol binding, competitive inhibitor).
For `O=C1CC(CCNC(=S)NCCCC[C@H](NS(=O)(=O)c2cccc(F)c2)C(=O)N[C@@H](Cc2c[nH]c3ccccc23)C(=O)NC2CCC2)=NO1`, the Ki was 0.122 µM (NAD-dependent protein deacylase sirtuin-5, mitochondrial (SIRT5, Homo sapiens, UniProt Q9NXA8); slow-binding inhibitor, continuous enzyme).
The Ki of `Nc1nc(NCCc2ccc(O)cc2)nc2nc(-c3ccco3)nn12` is reported as 3.24 µM (Adenosine receptor A3 (ADORA3, Homo sapiens, UniProt P0DMS8); NanoBRET competition binding; HEK293 expressing Nluc-A3; co-addition with tracer).
`Cc1[nH]c(C)c(S(=O)(=O)Nc2ccc(C(F)(F)F)c(Cl)c2)c1C(=O)NCC(F)F` has an IC50 of > 100 µM (DRD2).
For `COC(=O)C1=C(C)NC(C)=C(C(=O)OCCN(C)Cc2ccccc2)C1c1cccc([N+](=O)[O-])c1` (stereo not drawn), the Ki was 4.86 µM (ORM1 F1/S variants; competitive inhibitor, ultrafiltration; 15 min, 37 °C, added: [3H]tamsulosin).

Some of these lines once more:
`CC(=O)OCC(=O)[C@H]1CC[C@H]2[C@@H]3CC=C4C[C@@H](O)CC[C@]4(C)[C@H]3CC[C@]12C` has a Ki of > 100 µM (OSBP2; binding, radioligand competition; added: [3H]-25-hydroxycholesterol).
The IC50 of `CN(C)C(=O)c1c[nH]cc1S(=O)(=O)Nc1ccc(C(F)(F)F)c(Cl)c1` is reported as > 100 µM (DRD2).
`CCCCCCCCOC(C)=O` has a Ki of 5.77 µM (uncharacterized protein; binding; added: 1-NPN).
